Published values collected from several papers.
± gives the spread as reported.
Organism: Escherichia coli

SMILES | assay | system | conditions | scale | MIC
NC[C@H]1OB(O)c2c(OCCO)cccc21 | – | ATCC 25922 | M9 medium | – | 3.1 µM
CCCCCCCCCC(=O)NCCCC[C@@H](NC(=O)[C@@H](CC(C)C)NC(=O)[C@@H](CCCCN)NC(=O)[C@@H](CCCCNC(=O)[C@@H](CC(C)C)NC(=O)[C@@H](CCN)NC(=O)[C@@H](CCCCNC(=O)[C@@H](Cc1ccccc1)NC(=O)[C@H](N)CCCN)NC(=O)[C@@H](Cc1ccccc1)NC(=O)[C@H](N)CCCN)NC(=O)[C@@H](CC(C)C)NC(=O)[C@@H](CCN)NC(=O)[C@@H](CCCCNC(=O)[C@@H](Cc1ccccc1)NC(=O)[C@H](N)CCCN)NC(=O)[C@@H](Cc1ccccc1)NC(=O)[C@H](N)CCCN)C(N)=O | broth microdilution | W3110 | 37 °C | – | 4 µg/mL
NC[C@H]1O[C@H](O[C@H]2[C@H](OCCCCCCCCCCCCn3cc(CNc4nc(NCc5cn(CCCCCCCCCCCCO[C@@H]6[C@@H](O)[C@H](N)C[C@H](N)[C@H]6O[C@H]6O[C@H](CN)[C@@H](O)C[C@H]6N)nn5)nc(NCc5cn(CCCCCCCCCCCCO[C@@H]6[C@@H](O)[C@H](N)C[C@H](N)[C@H]6O[C@H]6O[C@H](CN)[C@@H](O)C[C@H]6N)nn5)n4)nn3)[C@@H](O)[C@H](N)C[C@@H]2N)[C@H](N)C[C@@H]1O | microbial growth, broth dilution | ATCC25922 | – | – | 64 µg/mL
C/C(=N\Nc1nc(C)cs1)c1ccc2c(c1)sc1nc(=O)c(C#N)cn12 | broth microdilution | – | – | – | < 41 µg/mL
COc1ccc2c(c1)C=[N+]1C3CCCCC3[N+]3=Cc4c(ccc5ccc(OC)cc45)[O][Au-]13[O]2.F[P-](F)(F)(F)(F)F (centres unmarked) | bacterial growth, broth microdilution | carbapenem-resistant | 24 h | – | > 20 µM
CCCCCCCCCCN1C(=O)/C(=N\NC(N)=S)c2cc(C)ccc21 | microbial growth, broth dilution | – | 18 h | – | > 192 µg/mL
COc1ccc2ccc3c(c2c1)C=[N+]1C2CCCCC2[N+]2=Cc4ccc(F)cc4[O][Au-]21[O]3.F[P-](F)(F)(F)(F)F (centres unmarked) | bacterial growth, broth microdilution | carbapenem-resistant clinical isolate | 24 h | – | 20 µM
O=C1NC(=O)N(/N=C/c2ccc([N+](=O)[O-])o2)C1O (centres unmarked) | microbial growth, broth dilution | ATCC25922 | 18 h | – | 50 µg/mL
COc1ccc2c(c1)[O][Au-]13[O]c4ccc5ccc(OC)cc5c4C=[N+]1C1CCCCC1[N+]3=C2.F[P-](F)(F)(F)(F)F (centres unmarked) | bacterial growth, broth microdilution | carbapenem-resistant clinical isolate | 24 h | – | > 20 µM
N#Cc1ccc2cccc(O)c2n1 | microbial growth, agar dilution | ATCC25922 | – | – | 1500 µM
O=C1OCC(O)N1/N=C/c1ccc([N+](=O)[O-])o1 (centres unmarked) | microbial growth, broth dilution | ATCC25922 | 18 h | – | 1.56 µg/mL
CCCCO[C@H]1[C@H](O)[C@@H](N)[C@@H](O[C@H]2[C@H](O[C@@H]3O[C@H](CO)[C@@H](O[C@H]4O[C@@H](CN)[C@@H](O)[C@H](O)[C@H]4N)[C@H]3O)[C@@H](O)[C@H](N)C[C@@H]2N)O[C@@H]1CO | broth microdilution | clinical isolate AG 055 | – | – | 64 µg/mL
CC(CCCOC(=O)CCC[N+](C)(C)C)C1CCC2C3CCC4CC(OC(=O)CCC[N+](C)(C)C)CCC4(C)C3CCC12C (centres unmarked) | microbial growth, broth dilution | ATCC25922 | 16 h | – | 1 µg/mL
CCCCCCCCN1C(=O)/C(=N\NC(=N)N)c2cc(C)ccc21 | microbial growth, broth dilution | – | 18 h | – | 12 µg/mL
CCn1cc(C(=O)NCCNCCO)c(=O)c2cc(OCc3ccc(C(C)(C)C)cc3)c(Cl)cc21 | – | ATCC 25922 | – | ≥80% growth inhibition | < 0.25 µg/mL
CC(C)=CCc1cc([C@@H]2CC(=O)c3c(O)cc(O)c(CC=C(C)C)c3O2)cc(CC=C(C)C)c1O | – | TISTR 780 | – | – | 128 µg/mL
CO[C@H]1[C@H](O)[C@@H](N)[C@@H](O[C@H]2[C@H](O[C@@H]3O[C@H](CO)[C@@H](O[C@H]4O[C@@H](CN)[C@@H](O)[C@H](O)[C@H]4N)[C@H]3O)[C@@H](O)[C@H](N)C[C@@H]2N)O[C@@H]1CO | broth microdilution | clinical isolate AG 055 | – | – | > 128 µg/mL
CC(=NNC(=N)N)c1nnn(-c2ccc(C#CC3(O)CCCCC3)cc2)c1C | microbial growth | ATCC25922 | – | – | 3.9 µg/mL
CCn1cc(/C=C/c2ccc3ccccc3[n+]2CC)c2ccccc21 | – | 780, Mueller-Hinton broth | – | – | 4 ± 0.005 µg/mL

SMILES | assay | system | conditions | scale | MIC
c1ccc(CN2CCOCCOCCN(CCCCCCCCCCCCCCN3CCOCCOCCN(CCCCCCCCCCCCCCN4CCOCCOCCN(Cc5ccccc5)CCOCCOCC4)CCOCCOCC3)CCOCCOCC2)cc1 | – | Tol- | – | – | 3 µM
C/C(=N\NC1=NC(=O)CS1)c1ccc2c(c1)sc1nc(=O)c(C#N)cn12 | microbial growth, broth dilution | – | – | – | < 33 µg/mL
C=CCO[C@H]1[C@H](O)[C@@H](N)[C@@H](O[C@H]2[C@H](O[C@@H]3O[C@H](CO)[C@@H](O[C@H]4O[C@@H](CN)[C@@H](O)[C@H](O)[C@H]4N)[C@H]3O)[C@@H](O)[C@H](N)C[C@@H]2N)O[C@@H]1CO | broth microdilution | clinical isolate AG 003 | – | – | 64 µg/mL
COc1ccc2ccc3c(c2c1)C=[N+]1C2CCCCC2[N+]2=Cc4cccc(OC)c4[O][Au-]21[O]3.F[P-](F)(F)(F)(F)F (centres unmarked) | bacterial growth, broth microdilution | carbapenem-resistant clinical isolate | 24 h | – | 20 µM
CCOC(=O)c1ccc2c(c1)n(CC)[c]([Au-]([Cl])([Cl])[Cl])[n+]2CC | broth dilution | DSM 1116 | 20 h, 37 °C | – | 53.4 ± 8.4 µM
COc1ccc2ccc3c(c2c1)C=[N+]1C2CCCCC2[N+]2=Cc4c(C)cccc4[O][Au-]21[O]3.F[P-](F)(F)(F)(F)F (centres unmarked) | bacterial growth, broth microdilution | carbapenem-resistant clinical isolate | 24 h | – | 20 µM
CC1OCC2OC(OC3C(N)CC(N)C(O)C3OC3OC(CO)C(OC4OC(CN)C(O)C(O)C4N)C3O)C(N)C(O)C2O1 (centres unmarked) | broth microdilution | clinical isolate AG 002 | – | – | 128 µg/mL
COc1cc2c(=O)c(C(=O)NCCNCCO)cn(Cc3ccccc3)c2cc1OCc1ccc(C(C)(C)C)cc1 | – | ATCC 25922 | – | ≥80% growth inhibition | 1 µg/mL
CCN(CC)CCCN1/C(=C/c2cc(C)[n+](C)c3ccccc23)Sc2ccccc21 | microbial growth, broth dilution | ATCC25922 | – | – | 2 µg/mL
COc1c2c(cc3c1[C@@H]1Oc4c(ccc(O)c4CC=C(C)C)[C@@H]1CO3)OC(C)(C)C=C2 | – | TISTR 780 | – | – | 128 µg/mL
C[C@H]1COc2c(N3CCN(C)CC3)c(F)cc3c(=O)c(C(=O)O)cn1c23 | microbial growth, broth dilution | ATCC25922 | – | – | 50 µM
COc1ccc2ccc3c(c2c1)C=[N+]1C2CCCCC2[N+]2=Cc4c(F)cccc4[O][Au-]21[O]3.F[P-](F)(F)(F)(F)F (centres unmarked) | bacterial growth, broth microdilution | carbapenem-resistant | 24 h | – | > 20 µM
COC(Cn1ccn(C)[c]1=[Ag][O]C(C)=O)c1ccccc1 (centres unmarked) | broth dilution | ATCC 25922 | 18 h, 37 °C | – | 5 µg/mL
CCc1[nH]c(C(=O)N[C@@H]2CCN(c3nnc(C(C)(C)O)s3)C[C@@H]2OC)nc1Cl | – | ATCC 25922 | – | – | 64 µg/mL
COc1c2c(cc3oc(=O)cc(-c4ccc(Cl)cc4)c13)C(=O)c1cc(C)cc(O)c1C2=O | microbial growth | – | – | – | 32 µg/mL
CN1CCC(NCCC2(Cc3ccc(Cl)cc3)CCCCC2)CC1 | microbial growth | K12 | 10 h | – | 50 µM
COc1ccc(NC(=O)C2C(=O)C(c3ccccc3)c3ccc4c(c32)C(=O)c2ccccc2C4=O)cc1 (centres unmarked) | microbial growth | – | – | – | > 100 µg/mL
CSCC[C@H](NC(=O)[C@H](CCCNC(=N)N)NC(=O)[C@H](Cc1c[nH]c2ccccc12)NC(=O)[C@H](CCC(N)=O)NC(=O)[C@H](Cc1c[nH]c2ccccc12)NC(=O)[C@H](CCCNC(=N)N)NC(=O)[C@@H](N)CCCNC(=N)N)C(=O)N[C@@H](CCCCN)C(=O)N[C@@H](CCCCN)C(=O)N[C@@H](CC(C)C)C(=O)NCC(=O)NCCCC[C@H](NC(=O)CNC(=O)[C@H](CC(C)C)NC(=O)[C@H](CCCCN)NC(=O)[C@H](CCCCN)NC(=O)[C@H](CCSC)NC(=O)[C@H](CCCNC(=N)N)NC(=O)[C@H](Cc1c[nH]c2ccccc12)NC(=O)[C@H](CCC(N)=O)NC(=O)[C@H](Cc1c[nH]c2ccccc12)NC(=O)[C@H](CCCNC(=N)N)NC(=O)[C@@H](N)CCCNC(=N)N)C(=O)NCCCCCC(N)=O | broth microdilution | ATCC 43827 | 24 h, 37 °C | – | 8 µM
CC(C)SC1COC(=O)N1/N=C/c1ccc([N+](=O)[O-])o1 (centres unmarked) | microbial growth, broth dilution | ATCC25922 | 18 h | – | > 50 µg/mL

For quick reference, copied from above:
SMILES | assay | system | conditions | scale | MIC
CC(=NNC(=N)N)c1nnn(-c2ccc(C#CC3(O)CCCCC3)cc2)c1C | microbial growth | ATCC25922 | – | – | 3.9 µg/mL
CCn1cc(/C=C/c2ccc3ccccc3[n+]2CC)c2ccccc21 | – | 780, Mueller-Hinton broth | – | – | 4 ± 0.005 µg/mL
c1ccc(CN2CCOCCOCCN(CCCCCCCCCCCCCCN3CCOCCOCCN(CCCCCCCCCCCCCCN4CCOCCOCCN(Cc5ccccc5)CCOCCOCC4)CCOCCOCC3)CCOCCOCC2)cc1 | – | Tol- | – | – | 3 µM
C/C(=N\NC1=NC(=O)CS1)c1ccc2c(c1)sc1nc(=O)c(C#N)cn12 | microbial growth, broth dilution | – | – | – | < 33 µg/mL
C=CCO[C@H]1[C@H](O)[C@@H](N)[C@@H](O[C@H]2[C@H](O[C@@H]3O[C@H](CO)[C@@H](O[C@H]4O[C@@H](CN)[C@@H](O)[C@H](O)[C@H]4N)[C@H]3O)[C@@H](O)[C@H](N)C[C@@H]2N)O[C@@H]1CO | broth microdilution | clinical isolate AG 003 | – | – | 64 µg/mL
